Experimental data gathered from unrelated publications.
A part holds a random share of what one study measured.
Sequence of UniProt P54764 (whole entry, looked up): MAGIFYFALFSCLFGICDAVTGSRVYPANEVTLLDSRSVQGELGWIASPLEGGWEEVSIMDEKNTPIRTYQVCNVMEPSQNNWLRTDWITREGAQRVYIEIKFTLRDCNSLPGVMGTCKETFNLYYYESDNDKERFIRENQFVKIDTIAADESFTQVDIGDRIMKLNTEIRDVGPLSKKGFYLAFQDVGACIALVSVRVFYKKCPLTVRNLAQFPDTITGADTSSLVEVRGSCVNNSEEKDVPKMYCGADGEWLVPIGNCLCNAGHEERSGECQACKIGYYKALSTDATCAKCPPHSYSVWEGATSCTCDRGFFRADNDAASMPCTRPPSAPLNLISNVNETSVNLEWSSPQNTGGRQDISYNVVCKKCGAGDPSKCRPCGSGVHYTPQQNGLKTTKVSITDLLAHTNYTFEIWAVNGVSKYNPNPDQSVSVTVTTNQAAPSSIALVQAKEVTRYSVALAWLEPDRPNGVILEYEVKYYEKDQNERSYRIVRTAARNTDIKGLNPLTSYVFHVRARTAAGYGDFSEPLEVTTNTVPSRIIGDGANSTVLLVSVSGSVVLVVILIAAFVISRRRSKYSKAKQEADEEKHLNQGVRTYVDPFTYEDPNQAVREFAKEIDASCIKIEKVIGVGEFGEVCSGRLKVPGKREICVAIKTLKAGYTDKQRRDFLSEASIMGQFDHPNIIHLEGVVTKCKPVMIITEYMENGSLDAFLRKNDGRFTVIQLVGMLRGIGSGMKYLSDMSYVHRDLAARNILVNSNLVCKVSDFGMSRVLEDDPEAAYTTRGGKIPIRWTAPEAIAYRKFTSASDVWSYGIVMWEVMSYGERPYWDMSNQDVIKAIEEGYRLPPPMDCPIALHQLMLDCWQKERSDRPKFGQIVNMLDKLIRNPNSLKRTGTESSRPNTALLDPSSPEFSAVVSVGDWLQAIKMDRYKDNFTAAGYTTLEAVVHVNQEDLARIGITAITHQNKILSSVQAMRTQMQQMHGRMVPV
Sequence of UniProt Q9NWZ3 (whole entry, looked up): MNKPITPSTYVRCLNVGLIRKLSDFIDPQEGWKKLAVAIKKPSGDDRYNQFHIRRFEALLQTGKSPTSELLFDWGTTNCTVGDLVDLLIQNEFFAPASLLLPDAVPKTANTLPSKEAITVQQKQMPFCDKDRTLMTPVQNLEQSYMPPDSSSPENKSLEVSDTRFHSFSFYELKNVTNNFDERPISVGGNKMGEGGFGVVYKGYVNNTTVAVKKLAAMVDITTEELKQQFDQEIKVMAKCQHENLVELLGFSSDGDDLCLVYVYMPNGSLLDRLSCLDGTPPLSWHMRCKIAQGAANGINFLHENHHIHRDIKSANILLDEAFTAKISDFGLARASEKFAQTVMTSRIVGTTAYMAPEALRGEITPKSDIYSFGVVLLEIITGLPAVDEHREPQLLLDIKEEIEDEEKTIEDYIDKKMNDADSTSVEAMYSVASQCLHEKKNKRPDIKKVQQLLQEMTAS
Sequence of UniProt O96017 (whole entry, looked up): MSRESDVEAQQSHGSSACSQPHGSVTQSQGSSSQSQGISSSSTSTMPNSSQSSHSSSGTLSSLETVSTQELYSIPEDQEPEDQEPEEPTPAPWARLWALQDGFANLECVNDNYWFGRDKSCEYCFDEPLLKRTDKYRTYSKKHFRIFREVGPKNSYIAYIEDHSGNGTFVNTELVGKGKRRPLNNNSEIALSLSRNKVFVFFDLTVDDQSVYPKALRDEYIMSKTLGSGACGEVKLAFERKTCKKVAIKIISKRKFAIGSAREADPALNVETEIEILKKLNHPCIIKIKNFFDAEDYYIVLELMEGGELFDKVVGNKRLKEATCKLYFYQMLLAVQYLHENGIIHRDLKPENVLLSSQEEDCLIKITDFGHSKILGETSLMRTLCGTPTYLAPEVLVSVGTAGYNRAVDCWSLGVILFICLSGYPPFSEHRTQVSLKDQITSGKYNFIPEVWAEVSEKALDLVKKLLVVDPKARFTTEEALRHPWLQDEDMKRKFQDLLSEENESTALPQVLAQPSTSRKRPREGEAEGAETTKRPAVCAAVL

Block 1
Target: Sal-like protein 4, full length isoform A (SALL4, Homo sapiens, UniProt Q9UJQ4, residues 1-1053)
Sequence of UniProt Q9UJQ4 (whole entry, looked up): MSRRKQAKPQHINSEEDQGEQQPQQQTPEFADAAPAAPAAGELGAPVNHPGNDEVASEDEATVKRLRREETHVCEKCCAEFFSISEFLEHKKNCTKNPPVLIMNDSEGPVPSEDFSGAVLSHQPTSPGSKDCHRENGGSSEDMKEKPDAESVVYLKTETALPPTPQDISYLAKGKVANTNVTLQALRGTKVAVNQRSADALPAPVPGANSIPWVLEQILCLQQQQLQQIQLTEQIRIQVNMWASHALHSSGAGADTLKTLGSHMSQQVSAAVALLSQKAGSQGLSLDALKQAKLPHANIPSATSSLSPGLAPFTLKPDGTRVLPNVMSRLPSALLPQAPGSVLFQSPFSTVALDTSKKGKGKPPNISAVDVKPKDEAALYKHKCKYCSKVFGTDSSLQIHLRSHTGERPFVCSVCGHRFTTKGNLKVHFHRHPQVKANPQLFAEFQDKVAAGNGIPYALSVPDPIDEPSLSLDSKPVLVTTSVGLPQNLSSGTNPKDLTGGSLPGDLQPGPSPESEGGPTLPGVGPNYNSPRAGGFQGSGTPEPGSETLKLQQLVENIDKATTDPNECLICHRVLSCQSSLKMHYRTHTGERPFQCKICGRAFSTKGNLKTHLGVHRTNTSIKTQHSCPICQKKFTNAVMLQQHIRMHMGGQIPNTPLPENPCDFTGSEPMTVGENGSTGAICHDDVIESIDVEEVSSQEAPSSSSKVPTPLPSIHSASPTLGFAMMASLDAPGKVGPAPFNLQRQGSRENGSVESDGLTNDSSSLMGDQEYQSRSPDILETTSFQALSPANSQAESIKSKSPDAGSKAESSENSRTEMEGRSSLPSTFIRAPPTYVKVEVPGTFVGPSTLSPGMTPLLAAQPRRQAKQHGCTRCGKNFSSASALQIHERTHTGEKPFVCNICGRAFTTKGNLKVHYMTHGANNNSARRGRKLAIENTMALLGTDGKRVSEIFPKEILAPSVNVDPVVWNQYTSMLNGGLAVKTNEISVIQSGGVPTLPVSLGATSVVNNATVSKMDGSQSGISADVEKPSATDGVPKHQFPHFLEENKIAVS
Technique: universal PBM
Form: double-stranded DNA, one strand shown
Matrix: in vitro
Tested at: 600 nM
Notes: 8-mer, flanks averaged, mean of replicates
Direction: higher = stronger binding
The E-score of `GGATGCTA` is reported as -0.149.
`CTGACATC` gave an E-score of 0.0263.
`AAGGCCAC` gave an E-score of -0.277.
The E-score of `CACCACTA` is reported as 0.0249.
With `TAACGGCA` the E-score was -0.0427.
With `ACTATCCA` the E-score was 0.00889.
`CAAGGTCA` has an E-score of -0.0861.
`CTTGACCC` gave an E-score of -0.281.

Block 2
Compound: Cc1c[nH]c2nccc(Oc3c(F)cc(Nc4cc(Cl)nc(N)n4)cc3F)c12
Effect on: cell-free assay
Technique: competition with immobilised ligand
Tested at: 0.1 µM
It gave 83% for remaining binding (Tyrosine-protein kinase ABL1, phosphorylated (ABL1, Homo sapiens, UniProt P00519, M351T)).
Cyclin-dependent kinase 15 (CDK15, Homo sapiens, UniProt Q96Q40) — remaining binding: 76%.
RAF proto-oncogene serine/threonine-protein kinase (RAF1, Homo sapiens, UniProt P04049) — remaining binding: 75%.
The remaining binding was 91% (Dual specificity mitogen-activated protein kinase kinase 2 (MAP2K2, Homo sapiens, UniProt P36507)).
The remaining binding was 99% (Mitogen-activated protein kinase kinase kinase 3 (MAP3K3, Homo sapiens, UniProt Q99759)).
The remaining binding was 97% (Serine/threonine-protein kinase DCLK3 (DCLK3, Homo sapiens, UniProt Q9C098)).
The remaining binding was 75% (Receptor-type tyrosine-protein kinase FLT3, autoinhibited (FLT3, Homo sapiens, UniProt P36888)).
It gave 85% for remaining binding (Interleukin-1 receptor-associated kinase 4 (IRAK4, Homo sapiens, UniProt Q9NWZ3)).
The remaining binding was 85% (Ribosomal protein S6 kinase beta-1 (RPS6KB1, Homo sapiens, UniProt P23443)).
It gave 100% for remaining binding (MAP kinase-interacting serine/threonine-protein kinase 1 (MKNK1, Homo sapiens, UniProt Q9BUB5)).
The remaining binding was 84% (Receptor-interacting serine/threonine-protein kinase 4 (RIPK4, Homo sapiens, UniProt P57078)).
It gave 89% for remaining binding (Serine/threonine-protein kinase Chk2 (CHEK2, Homo sapiens, UniProt O96017)).
3-phosphoinositide-dependent protein kinase 1 (PDPK1, Homo sapiens, UniProt O15530) — remaining binding: 100%.
For Serine/threonine-protein kinase 32B (STK32B, Homo sapiens, UniProt Q9NY57): remaining binding read 71%.
Tyrosine-protein kinase Lyn (LYN, Homo sapiens, UniProt P07948) — remaining binding: 81%.
For Casein kinase I isoform gamma-3 (CSNK1G3, Homo sapiens, UniProt Q9Y6M4): remaining binding read 100%.
The remaining binding was 85% (Serine/threonine-protein kinase 33 (STK33, Homo sapiens, UniProt Q9BYT3)).
Tyrosine-protein kinase SYK (SYK, Homo sapiens, UniProt P43405) — remaining binding: 100%.
The remaining binding was 100% (Ephrin type-A receptor 4 (EPHA4, Homo sapiens, UniProt P54764)).
G protein-coupled receptor kinase 3 (GRK3, Homo sapiens, UniProt P35626) — remaining binding: 78%.

Block 3
Target: Tyrosine-protein kinase Yes (YES1, Homo sapiens, UniProt P07947)
Sequence of UniProt P07947 (whole entry, looked up): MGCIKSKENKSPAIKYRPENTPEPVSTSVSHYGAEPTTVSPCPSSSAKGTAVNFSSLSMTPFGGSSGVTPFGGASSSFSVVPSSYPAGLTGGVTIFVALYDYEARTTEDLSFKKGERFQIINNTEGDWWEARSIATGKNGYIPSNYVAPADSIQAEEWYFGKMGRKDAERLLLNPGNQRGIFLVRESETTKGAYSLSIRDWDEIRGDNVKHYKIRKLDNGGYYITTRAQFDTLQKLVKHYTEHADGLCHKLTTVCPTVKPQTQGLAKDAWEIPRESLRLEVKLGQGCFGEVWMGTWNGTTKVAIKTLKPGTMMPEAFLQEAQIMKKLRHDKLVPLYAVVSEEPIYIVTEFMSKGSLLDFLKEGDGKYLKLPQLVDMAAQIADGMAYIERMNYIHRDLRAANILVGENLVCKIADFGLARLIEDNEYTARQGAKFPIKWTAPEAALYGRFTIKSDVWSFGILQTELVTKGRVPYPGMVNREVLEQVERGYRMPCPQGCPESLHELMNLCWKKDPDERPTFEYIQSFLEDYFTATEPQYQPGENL
Effect on: enzyme activity
Mode: inhibitor
Tested at: 0.5 µM
Baseline: control
The remaining activity of `Fc1ccc(-c2nc3n(c2-c2ccncc2)CCS3)cc1` is reported as 99.4%.
The remaining activity of `COc1ccc(S(=O)(=O)N(CCO)c2ccccc2CN(C)CC=Cc2ccc(Cl)cc2)cc1` is reported as 103%.
`Cc1cncc2cccc(S(=O)(=O)N3CCCN(C(=O)CN)C[C@@H]3C)c12` gave a remaining activity of 92%.
`O=C1NC(=O)C(c2c[nH]c3ccccc23)=C1c1c[nH]c2ccccc12` gave a remaining activity of 88.4%.
The remaining activity of `CSc1nc(-c2ccnc(N[C@@H](C)c3ccccc3)c2)c(-c2ccc(F)cc2)[nH]1` (racemic) is reported as 91.8%.
With `CCc1[nH]c(-c2ccc(OC)cc2)nc1-c1ccncc1` the remaining activity was 95.1%.
`CCCC(=O)Oc1ccc2[nH]c(C(=O)c3cc4ccccc4[nH]3)cc2c1` gave a remaining activity of 84.4%.
`CC[n+]1c(/C=C/N(C)c2ccccc2)n(-c2ccccc2)c2ccc(-c3nc4ccccc4s3)cc21` has a remaining activity of 94.9%.
`O=C1Cc2c([nH]c3ccc([N+](=O)[O-])cc23)-c2ccccc2N1` gave a remaining activity of 42.3%.
With `Nc1nccc(-c2c(-c3ccc(F)cc3)ncn2C2CCNCC2)n1` the remaining activity was 85.3%.

Block 4
Target: Cyclic AMP-responsive element-binding protein 1 (CREB1, Homo sapiens, UniProt P16220, residues 1-327, full length assumed)
Sequence of UniProt P16220 (whole entry, looked up): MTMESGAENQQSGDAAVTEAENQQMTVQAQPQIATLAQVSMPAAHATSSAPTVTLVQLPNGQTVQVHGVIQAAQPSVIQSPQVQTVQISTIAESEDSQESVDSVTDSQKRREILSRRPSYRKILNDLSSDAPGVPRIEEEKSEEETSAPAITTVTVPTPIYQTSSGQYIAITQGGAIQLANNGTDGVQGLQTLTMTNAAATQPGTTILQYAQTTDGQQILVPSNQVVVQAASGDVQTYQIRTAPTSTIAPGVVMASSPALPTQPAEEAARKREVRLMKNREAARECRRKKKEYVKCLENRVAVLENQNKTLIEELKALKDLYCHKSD
Technique: protein-binding microarray
Form: double-stranded DNA, one strand shown
Matrix: in vitro
Tested at: not given
Notes: k-mer, scored over probes, only values ≥0.25
Direction: higher = stronger binding
For `CTTTTTA`, the E-score was 0.266.
For `CGACGTA`, the E-score was 0.346.
With `GGCGTCA` the E-score was 0.349.
For `ATTTTCA`, the E-score was 0.252.
`GCGTCAA` has an E-score of 0.267.
For `AATGCGT`, the E-score was 0.263.
`CACGTGA` gave an E-score of 0.279.
For `AACGTCA`, the E-score was 0.474.

For quick reference, copied from above (block 1):
The E-score of `CACCACTA` is reported as 0.0249.
With `TAACGGCA` the E-score was -0.0427.
With `ACTATCCA` the E-score was 0.00889.
`CAAGGTCA` has an E-score of -0.0861.
